Results from different studies.
Compare with care: the assays were run in different laboratories. Values joined by “and” are separate records of one study, mostly repeats; a detail may differ. ± gives the spread as reported.
ARID1B: AT-rich interactive domain-containing protein 1B (ARID1B, Homo sapiens, UniProt Q8NFD5)
gyrB with GyrA: DNA gyrase subunit B, with GyrA (gyrB, Mycobacterium tuberculosis, UniProt P9WG45)
MDM2: E3 ubiquitin-protein ligase Mdm2 (MDM2, Homo sapiens, UniProt Q00987)

CC[C@H](C)[C@H](NC(=O)[C@H](CO)NC(=O)[C@H](CC(N)=O)NC(=O)[C@H](CC(C)C)NC(=O)[C@H](Cc1ccc(O)cc1)NC(=O)[C@H](CCCCN)NC(=O)[C@H](CCCCN)NC(=O)[C@@H](NC(=O)[C@H](C)NC(=O)[C@H](CCSC)NC(=O)[C@H](CCC(N)=O)NC(=O)[C@H](CCCCN)NC(=O)[C@H](CCCN=C(N)N)NC(=O)[C@H](CC(C)C)NC(=O)[C@H](CCCN=C(N)N)NC(=O)[C@@H](NC(=O)[C@H](Cc1ccc(O)cc1)NC(=O)[C@H](CC(N)=O)NC(=O)[C@H](CC(=O)O)NC(=O)[C@@H](NC(=O)[C@H](Cc1ccccc1)NC(=O)[C@@H](NC(=O)[C@H](C)NC(=O)[C@H](CC(=O)O)NC(=O)[C@H](CO)NC(=O)[C@@H](N)Cc1c[nH]cn1)C(C)C)[C@@H](C)O)[C@@H](C)O)C(C)C)C(=O)N[C@@H](CC(C)C)C(=O)N[C@@H](CC(N)=O)C(N)=O — EC50 (ADCYAP1R1 (Homo sapiens, UniProt P41586, del89-109); Gq dissociation, agonist, BRET2 TRUPATH; COS-7; 37 °C): 0.49 µM
CCN(CC)C(=O)[C@@H]1C=C2c3cccc4c3c(cn4C(=O)c3ccco3)C[C@H]2N(C)C1 — Ki (DRD5 (Homo sapiens, UniProt P21918); ligand displacement, radioligand): > 10 µM
CCCCCn1cc(C(=O)c2cccc3c2CC(C)(C)C3)c2ccccc21 — EC50 (CNR1 (Homo sapiens, UniProt P21554); GαoA activation, agonist, BRET): 0.0339 µM
CN(C)CC1CN(S(=O)(F)=Nc2cc(Cl)c(C(=O)N3CCO[C@@H](c4ccccc4)C3)c(Cl)c2)C1 (stereo partly drawn) — Kd (Hemagglutinin (HA, Influenza A virus, UniProt P03452); A/Puerto Rico/8/1934): 0.041 µM
CC(C)C[C@@H]1NC(=O)CN(C)C(=O)[C@H](Cc2c[nH]c3ccccc23)NC(=O)[C@H](C)NC(=O)[C@H](Cc2ccccc2)N(C)C(=O)[C@H](Cc2ccccc2)NC(=O)CSC[C@@H](C(N)=O)NC(=O)[C@H](CCCCN)NC(=O)[C@H](C(C)C)NC(=O)[C@H](Cc2ccc(O)cc2)NC(=O)[C@H](Cc2ccc(O)cc2)NC(=O)[C@H](C(C)C)NC(=O)[C@H](Cc2ccccc2)N(C)C(=O)[C@H](CCCNC(=N)N)NC1=O — IC50 (ARID1B; binding, TR-FRET competition; 1% DMSO): 0.01 µM
COc1ccc(NC(=O)CCc2c(C(=O)Nc3ccc(OC)cc3)[nH]c3ccc(Cl)cc23)cc1 — IC50 (gyrB with GyrA): 28.5 µM
COc1ccccc1C(C[N+](=O)[O-])c1c(-c2ccccc2)[nH]c2ccccc12 (stereo not drawn) — EC50 (CNR1 (Homo sapiens, UniProt P21554, N393A); G protein activation, agonist): 0.31 ± 0.08 µM
CCCCCn1cc(C(=O)c2ccc3ccccc3c2)c2ccccc21 — EC50 (CNR1 (Homo sapiens, UniProt P21554, H178A); G protein activation, agonist, BRET): 1.05 µM
O=[N+]([O-])CC(c1ccco1)c1c(-c2ccccc2)[nH]c2ccccc12 (stereo not drawn) — EC50 (CNR1 (Homo sapiens, UniProt P21554, W241A); G protein activation, agonist, BRET): > 1000 µM
CC(C)CC(C(=O)N1CC2(CC1C#N)C(=O)Nc1ccccc12)N(C)C(=O)c1cc2c(F)cc(F)c(F)c2[nH]1 (stereo not drawn) — IC50 (Caspase-14 (Homo sapiens, UniProt P31944); enzyme activity, inhibitor): 9 µM and 9.01 µM
Cc1ccc(OCCN(C)C)cc1C(=O)N[C@H](C)c1cc(-c2cnn(C(F)F)c2)nc2ccccc12 — viability (Vero E6; 7.812 µM): 90.6% and 96.9%
Cc1ccc2c(C(C[N+](=O)[O-])c3cccs3)c(-c3ccccc3)[nH]c2c1 (stereo not drawn) — EC50 (CNR1 (Homo sapiens, UniProt P21554, I245M); β-arrestin recruitment, agonist): 0.12 µM
CC(=O)N(Cc1ccccc1)[C@@H](C)C(=O)N(C)[C@@H](C)C(=O)N(CCc1ccc(Cl)cc1)[C@@H](C)C(=O)N(C)[C@@H](C)C(=O)N(CCC(C)C)[C@@H](C)C(N)=O — Ki (MDM2; ligand displacement, FP): 1.9 µM
CCN(CC)C(=O)c1ccc(C(c2cccc(O)c2)N2CC(C)N(Cc3ccccc3)CC2C)cc1 (stereo not drawn) — EC50 (OPRD1 (Homo sapiens, UniProt P41143, H278A); agonist): 0.00076 ± 0.00043 µM
COc1ccccc1-c1n[nH]c2nc(NC3CCN(C(=O)Cc4ccc(F)cc4F)CC3)ncc12 — relative abundance (bead binding, competition bead pull-down, item: LINJ.24.2330; Leishmania donovani axenic amastigote extract; 10 µM; reference: vehicle): 0.89
CS(C)(=O)=Nc1ccc(-c2ccc(-c3nc4cc(O[C@@H]5CO[C@H]6[C@@H]5OC[C@H]6O)[nH]c4cc3F)cc2)cc1 — inhibition (EEF2K (Homo sapiens, UniProt O00418); enzyme activity, inhibitor; 10 µM): -5%
Cc1ccc(NC2(C)CN(C)C2)cc1C(=O)N[C@H](C)c1cc(-c2cnn(C)c2)nc2ccccc12 — viability (Vero E6; 31.25 µM): 97.8% and 89.6% and 91.1%
O=C(CCc1c(C(=O)Nc2ccc(Br)cc2)[nH]c2ccc(Cl)cc12)Nc1ccc(Br)cc1 — IC50 (gyrB with GyrA): 6.8 µM
CCCCCn1cc(C(=O)c2cccc3ccccc23)c2ccccc21 — EC50 (CNR1 (Homo sapiens, UniProt P21554, F174A); G protein activation, agonist, BRET): 0.17 µM
O=C1NC2(CC2)COc2ncc(F)cc2[C@H]2COCCN2c2ccn3ncc1c3n2 — organ-to-brain weight ratio (Sprague-Dawley rat, male, spleen; oral, 10 mg/kg/day, 4 weeks dosing, end of recovery): 53 ± 9.13%
O=C(CCc1c(C(=O)Nc2ccc(Cl)cc2)[nH]c2ccc(C(F)(F)F)cc12)Nc1ccc(Cl)cc1 — IC50 (gyrB with GyrA): 7.9 µM
CC(=O)N(Cc1ccccc1)[C@@H](C)C(=O)N(C)[C@@H](C)C(=O)N(Cc1c[nH]c2ccccc12)[C@@H](C)C(=O)N(C)[C@@H](C)C(=O)N(CC1CCCCC1)[C@@H](C)C(N)=O — Ki (MDM2; ligand displacement, FP): 23.8 µM
CCC[C@@H](C(=O)c1ccccc1)N1CCCC1 — Ki (SLC6A3 (Homo sapiens, UniProt Q01959, S149A/S429G); transporter uptake, inhibitor, radiometric): 0.026 µM
CC(C)C[C@@H]1NC(=O)CN(C)C(=O)[C@H](C)NC(=O)[C@H](CCC(=O)O)NC(=O)[C@H](Cc2ccccc2)N(C)C(=O)[C@H](Cc2ccccc2)NC(=O)CSC[C@@H](C(N)=O)NC(=O)[C@H](CCCCN)NC(=O)[C@H](C(C)C)NC(=O)[C@H](Cc2ccc(O)cc2)NC(=O)[C@H](Cc2ccc(O)cc2)NC(=O)[C@H](C(C)C)NC(=O)[C@H](Cc2ccccc2)N(C)C(=O)[C@H](CCCNC(=N)N)NC1=O — IC50 (ARID1B; binding, TR-FRET competition; 1% DMSO): > 1 µM

Excerpt of the above:
CC(=O)N(Cc1ccccc1)[C@@H](C)C(=O)N(C)[C@@H](C)C(=O)N(CCc1ccc(Cl)cc1)[C@@H](C)C(=O)N(C)[C@@H](C)C(=O)N(CCC(C)C)[C@@H](C)C(N)=O — Ki (MDM2; ligand displacement, FP): 1.9 µM
CCN(CC)C(=O)c1ccc(C(c2cccc(O)c2)N2CC(C)N(Cc3ccccc3)CC2C)cc1 (stereo not drawn) — EC50 (OPRD1 (Homo sapiens, UniProt P41143, H278A); agonist): 0.00076 ± 0.00043 µM
COc1ccccc1-c1n[nH]c2nc(NC3CCN(C(=O)Cc4ccc(F)cc4F)CC3)ncc12 — relative abundance (bead binding, competition bead pull-down, item: LINJ.24.2330; Leishmania donovani axenic amastigote extract; 10 µM; reference: vehicle): 0.89
